Experimental data collected from several papers.
Each line is one published result; not all experiments were run side by side. “And” joins repeats or separate records; there may be more than shown.
Target: Mitogen-activated protein kinase kinase kinase 8 (MAP3K8, Homo sapiens, UniProt P41279)

`O=C(Cc1ccc(OCc2ccccc2)cc1)NC1(C(=O)O)CCN(C(=O)c2ccc(-c3cccc(Cl)c3)cc2)CC1` — result for “activity vs control”: 100% (enzyme activity, inhibitor; 10 µM).
`COCC12C(=O)NC3C4(C(OC)CC1O)C1CC5(O)C(OC)C(O)C(OC(C)=O)(C1C5OC(=O)c1ccccc1)C3(O)C(OC)C24` (centres unmarked) gave a remaining activity of 88% and 82% (kinase activity, inhibitor, ProQinase kinase profiling; 25 µM; relative to: control).
For `NC(=O)[C@@H](O)C[C@H]1CCc2sc3ncnc(O[C@H]4CC[C@H](N5CCOCC5)CC4)c3c21`, the inhibition was -4% (enzyme activity, inhibitor; 10 µM).
With `Nc1ncc(-c2cc(-c3cnn(CC(F)(F)F)c3)ncc2F)nc1C(=O)NC1CNCC(F)C1` (centres unmarked) the remaining activity was 97.3% (enzyme activity; 1 µM; relative to: DMSO control).
`C=CC(=O)N1Cc2nc(-c3cc(-c4cc(Cl)cnc4Cl)c(F)cc3F)n(-c3ccncn3)c2C1` gave an inhibition of -5.6% (cell-free assay, inhibitor; 1 µM).
For `CN1CCN(Cc2ccc(-c3ccc(CO[C@H]4CCC[C@@H]4NC(=O)c4cc(-c5cnn(C)c5)cnc4N)cc3)cc2)CC1`, the inhibition was -3% (enzyme activity, inhibitor; 0.1 µM).
With `CCn1cc(C(=O)O)c(=O)c2c(N)c(F)c(NC3CCCCC3)cc21` the inhibition was 0.1% (kinase activity; 0.1 µM, added: ATP at Km).
With `NC(=O)C[C@H]1CCc2sc3ncnc(O[C@H]4CC[C@H](N5CCOCC5)CC4)c3c21` the inhibition was 6% (enzyme activity, inhibitor; 10 µM).

Excerpt of the above:
For `NC(=O)[C@@H](O)C[C@H]1CCc2sc3ncnc(O[C@H]4CC[C@H](N5CCOCC5)CC4)c3c21`, the inhibition was -4% (enzyme activity, inhibitor; 10 µM).
